Published values pooled from the literature.
Lines come from different studies, so protocols differ. Several values in a cell are separate wells, animals, samples, runs or records. Numbers after ± are the reported error.

Compound	cell line	test	setting	how to read	EC50
COc1cccc(C2CC(c3ccccc3Cl)Nc3nc(N)nn32)c1 (centres unmarked)	MEF with dox-inducible FLAG-LMNB1	lamin B1 reduction, high-content imaging, refers to: lamin B1	48 h, added: doxycycline		8600 ± 1800 nM
Nc1ncnc2c1c(-c1ccc(Cl)c(C(F)(F)F)c1)cn2[C@@H]1O[C@H](CO)[C@@H](O)[C@H]1O	HEK	cytotoxicity			84200 ± 3700 nM
C(=C/c1ccccc1)/c1ccccc1	HL-60	apoptosis, flow cytometry, refers to: caspase-3 activity	24 h, 50% apoptosis induction		31000 nM
C=C1[C@H](O)CC(=C/C=C2\CCC[C@]3(C)[C@@H]([C@H](C)CCCCO)CC[C@@H]23)C[C@H]1O	HL-60	cell differentiation, NBT reduction	50% maturation		20 nM
Nc1ncnc2c1c(-c1ccc(Cl)cc1F)cn2[C@@H]1O[C@H](CO)[C@@H](O)[C@H]1O	HEK	cytotoxicity			> 200000 nM
CC(C)C[C@@H](/C=C/CC(=O)N1CCC[C@H]1C(=O)N[C@H](C(=O)N[C@@H](CCCNC(=O)OCc1ccccc1)C(=O)NC1CC(C)(C)N([O])C(C)(C)C1)C(C)C)NC(=O)OC(C)(C)C	HT-1080	protection from ferroptosis, PrestoBlue	24 h, added: erastin 10 µM		895 nM
Cc1ccc(-c2cn([C@@H]3O[C@H](CO)[C@@H](O)[C@H]3O)c3ncnc(N)c23)cc1F	HEK	cytotoxicity			> 200000 nM
CCOC(=O)CCCCC[C@@H]1NC(=O)[C@H]2CCCN2C(=O)[C@H](Cc2ccccc2)NC(=O)[C@H](Cc2ccccc2)NC1=O	human iPSC-derived NPCs	inducer, ELISA, refers to: intracellular progranulin	18 h		6000 ± 800 nM
C=C1[C@H](O)CC(=C/C=C2\CCC[C@]3(C)[C@@H]([C@@H](C)CCCC)CC[C@@H]23)C[C@H]1O	HL-60	cell differentiation, NBT reduction	50% maturation		5 nM
CCCCCCCOc1ccc(CC[C@](N)(CO)COP(=O)(O)O)cc1C(F)(F)F	human atrial myocytes	GIRK current, activator, whole-cell patch clamp		baseline: carbachol 20 µM response	41.6 nM
Oc1cccc2cnccc12	mouse DRG neurons axotomized	axon fragmentation	2 h pretreatment, 16 h post-axotomy		> 40000 nM
FC(F)(F)c1ccnc(-c2cc(C(F)(F)F)ccn2)c1.FC(F)(F)c1ccnc(-c2cc(C(F)(F)F)ccn2)c1.[Cl-].[Cl-].[Ru+2].c1csc(-c2ccc(-c3ccc(-c4nc5c6cccnc6c6ncccc6c5[nH]4)s3)s2)c1	SK-MEL-28	cell viability	hypoxia 1% O2, added: visible light		1200 nM and ~1000 nM
Nc1ncnc2c1c(-c1ccc(O)cc1)cn2[C@@H]1O[C@H](CO)[C@@H](O)[C@H]1O	HEK	cytotoxicity			> 200000 nM
CCc1noc(CC)c1C(=O)O[C@H]1C(C)=C[C@]23C(=O)[C@@H](C=C(CO)[C@@H](O)[C@]12O)[C@H]1[C@@H](C[C@H]3C)C1(C)C	primary human epidermal keratinocytes	IL-8 release, stimulator	6 h		3.3 nM

Excerpt of the above:
Compound	cell line	test	setting	how to read	EC50
CCOC(=O)CCCCC[C@@H]1NC(=O)[C@H]2CCCN2C(=O)[C@H](Cc2ccccc2)NC(=O)[C@H](Cc2ccccc2)NC1=O	human iPSC-derived NPCs	inducer, ELISA, refers to: intracellular progranulin	18 h		6000 ± 800 nM
